# Results collected from several papers.
# Protocols differ between the studies behind these lines. Several values in a cell are separate wells, animals, samples, runs or records. Numbers after ± are the reported error.
# Sequence of UniProt P06493 (whole entry, looked up): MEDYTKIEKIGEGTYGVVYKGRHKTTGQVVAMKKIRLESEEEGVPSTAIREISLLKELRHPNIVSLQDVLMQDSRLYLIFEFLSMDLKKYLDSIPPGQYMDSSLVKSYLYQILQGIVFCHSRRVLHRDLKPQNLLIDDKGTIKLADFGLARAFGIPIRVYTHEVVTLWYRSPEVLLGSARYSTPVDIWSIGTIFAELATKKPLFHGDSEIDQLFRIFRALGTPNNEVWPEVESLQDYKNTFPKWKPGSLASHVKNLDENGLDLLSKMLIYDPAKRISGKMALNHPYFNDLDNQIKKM
# Sequence of UniProt P18089 (whole entry, looked up): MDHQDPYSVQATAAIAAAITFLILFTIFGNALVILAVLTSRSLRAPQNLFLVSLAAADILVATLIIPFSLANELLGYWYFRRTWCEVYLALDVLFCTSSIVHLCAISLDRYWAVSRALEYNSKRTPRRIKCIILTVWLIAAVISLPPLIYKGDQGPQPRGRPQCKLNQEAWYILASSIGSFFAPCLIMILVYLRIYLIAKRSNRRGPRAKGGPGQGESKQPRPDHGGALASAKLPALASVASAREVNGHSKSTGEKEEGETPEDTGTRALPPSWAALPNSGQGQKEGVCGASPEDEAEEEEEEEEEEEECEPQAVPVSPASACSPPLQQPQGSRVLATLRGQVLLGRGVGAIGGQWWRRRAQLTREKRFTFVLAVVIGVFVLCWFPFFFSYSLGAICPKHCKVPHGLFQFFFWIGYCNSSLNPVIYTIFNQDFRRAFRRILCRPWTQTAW
# Sequence of UniProt Q13153 (whole entry, looked up): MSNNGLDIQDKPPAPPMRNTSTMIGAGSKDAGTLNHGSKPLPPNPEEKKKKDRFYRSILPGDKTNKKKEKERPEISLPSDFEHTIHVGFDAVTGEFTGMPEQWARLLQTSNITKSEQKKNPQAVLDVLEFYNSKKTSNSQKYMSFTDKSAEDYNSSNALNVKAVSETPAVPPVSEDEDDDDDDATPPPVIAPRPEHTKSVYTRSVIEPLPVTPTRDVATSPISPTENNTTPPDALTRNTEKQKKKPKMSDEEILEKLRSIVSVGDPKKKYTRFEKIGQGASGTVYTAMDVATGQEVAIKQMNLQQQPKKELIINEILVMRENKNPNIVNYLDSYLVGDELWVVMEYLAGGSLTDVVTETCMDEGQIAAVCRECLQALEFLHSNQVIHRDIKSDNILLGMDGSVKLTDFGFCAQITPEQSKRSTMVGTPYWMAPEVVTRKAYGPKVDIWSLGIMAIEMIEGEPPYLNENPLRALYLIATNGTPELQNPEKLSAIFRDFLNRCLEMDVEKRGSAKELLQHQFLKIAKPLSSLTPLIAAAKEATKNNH
# Sequence of UniProt Q08881 (whole entry, looked up): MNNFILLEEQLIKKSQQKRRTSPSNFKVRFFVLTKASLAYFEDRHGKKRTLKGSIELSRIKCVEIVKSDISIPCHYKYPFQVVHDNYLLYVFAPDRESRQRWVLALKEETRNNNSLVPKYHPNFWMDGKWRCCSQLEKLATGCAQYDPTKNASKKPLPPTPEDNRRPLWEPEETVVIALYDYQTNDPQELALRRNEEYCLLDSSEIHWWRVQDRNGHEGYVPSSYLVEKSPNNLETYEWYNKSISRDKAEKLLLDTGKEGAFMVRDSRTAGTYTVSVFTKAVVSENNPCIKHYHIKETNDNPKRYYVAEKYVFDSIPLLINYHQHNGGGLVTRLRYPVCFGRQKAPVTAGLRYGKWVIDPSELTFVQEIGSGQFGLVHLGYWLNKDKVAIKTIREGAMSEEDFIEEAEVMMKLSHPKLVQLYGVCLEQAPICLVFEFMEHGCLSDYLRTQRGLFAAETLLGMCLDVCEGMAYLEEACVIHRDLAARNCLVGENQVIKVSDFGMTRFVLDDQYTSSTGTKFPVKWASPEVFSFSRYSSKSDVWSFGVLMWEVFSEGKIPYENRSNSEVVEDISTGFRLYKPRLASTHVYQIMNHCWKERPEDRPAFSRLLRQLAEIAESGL
# Sequence of UniProt Q9DB29 (whole entry, looked up): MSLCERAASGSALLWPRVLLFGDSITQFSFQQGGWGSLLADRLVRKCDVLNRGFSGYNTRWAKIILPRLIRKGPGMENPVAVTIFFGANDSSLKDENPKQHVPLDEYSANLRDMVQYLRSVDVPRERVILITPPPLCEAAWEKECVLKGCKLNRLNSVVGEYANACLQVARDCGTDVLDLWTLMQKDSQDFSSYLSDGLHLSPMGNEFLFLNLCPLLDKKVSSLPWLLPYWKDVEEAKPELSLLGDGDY
# Sequence of UniProt Q8N4C8 (whole entry, looked up): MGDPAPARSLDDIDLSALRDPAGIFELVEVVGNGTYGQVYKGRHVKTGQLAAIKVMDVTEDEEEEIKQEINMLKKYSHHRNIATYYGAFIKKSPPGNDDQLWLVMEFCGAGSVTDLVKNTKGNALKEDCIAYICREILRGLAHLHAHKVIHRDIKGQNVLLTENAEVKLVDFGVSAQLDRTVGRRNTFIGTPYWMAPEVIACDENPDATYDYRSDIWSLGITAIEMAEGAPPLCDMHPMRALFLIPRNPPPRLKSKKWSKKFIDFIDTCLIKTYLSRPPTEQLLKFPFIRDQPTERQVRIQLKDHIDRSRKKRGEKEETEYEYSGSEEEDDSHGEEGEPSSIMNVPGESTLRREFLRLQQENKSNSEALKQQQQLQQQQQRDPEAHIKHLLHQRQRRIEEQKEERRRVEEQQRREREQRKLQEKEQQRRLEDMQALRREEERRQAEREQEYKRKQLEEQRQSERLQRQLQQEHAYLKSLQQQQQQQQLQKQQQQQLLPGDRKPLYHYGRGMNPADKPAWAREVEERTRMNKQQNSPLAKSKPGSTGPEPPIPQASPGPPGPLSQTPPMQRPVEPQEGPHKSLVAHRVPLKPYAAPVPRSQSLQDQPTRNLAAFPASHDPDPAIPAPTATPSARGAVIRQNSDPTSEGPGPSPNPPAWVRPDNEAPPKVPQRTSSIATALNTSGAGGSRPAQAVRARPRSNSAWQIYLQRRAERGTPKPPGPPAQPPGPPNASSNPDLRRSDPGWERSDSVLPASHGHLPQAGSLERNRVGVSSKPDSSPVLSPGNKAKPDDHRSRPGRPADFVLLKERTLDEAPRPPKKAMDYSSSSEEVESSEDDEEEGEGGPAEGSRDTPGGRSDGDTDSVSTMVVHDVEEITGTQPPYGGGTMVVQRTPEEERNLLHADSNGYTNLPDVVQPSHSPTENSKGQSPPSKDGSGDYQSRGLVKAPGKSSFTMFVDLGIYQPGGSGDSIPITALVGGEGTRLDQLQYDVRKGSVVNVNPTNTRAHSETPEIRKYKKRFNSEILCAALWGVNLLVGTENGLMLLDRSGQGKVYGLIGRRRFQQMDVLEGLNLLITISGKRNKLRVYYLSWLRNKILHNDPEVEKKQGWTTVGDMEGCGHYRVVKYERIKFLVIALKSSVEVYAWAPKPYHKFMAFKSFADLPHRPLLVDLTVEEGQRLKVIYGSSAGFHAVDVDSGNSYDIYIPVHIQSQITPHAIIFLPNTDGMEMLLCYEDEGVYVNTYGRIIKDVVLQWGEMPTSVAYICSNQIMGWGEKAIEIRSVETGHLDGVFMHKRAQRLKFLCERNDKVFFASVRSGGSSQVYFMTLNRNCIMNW
# Sequence of UniProt Q9Y2J8 (whole entry, looked up): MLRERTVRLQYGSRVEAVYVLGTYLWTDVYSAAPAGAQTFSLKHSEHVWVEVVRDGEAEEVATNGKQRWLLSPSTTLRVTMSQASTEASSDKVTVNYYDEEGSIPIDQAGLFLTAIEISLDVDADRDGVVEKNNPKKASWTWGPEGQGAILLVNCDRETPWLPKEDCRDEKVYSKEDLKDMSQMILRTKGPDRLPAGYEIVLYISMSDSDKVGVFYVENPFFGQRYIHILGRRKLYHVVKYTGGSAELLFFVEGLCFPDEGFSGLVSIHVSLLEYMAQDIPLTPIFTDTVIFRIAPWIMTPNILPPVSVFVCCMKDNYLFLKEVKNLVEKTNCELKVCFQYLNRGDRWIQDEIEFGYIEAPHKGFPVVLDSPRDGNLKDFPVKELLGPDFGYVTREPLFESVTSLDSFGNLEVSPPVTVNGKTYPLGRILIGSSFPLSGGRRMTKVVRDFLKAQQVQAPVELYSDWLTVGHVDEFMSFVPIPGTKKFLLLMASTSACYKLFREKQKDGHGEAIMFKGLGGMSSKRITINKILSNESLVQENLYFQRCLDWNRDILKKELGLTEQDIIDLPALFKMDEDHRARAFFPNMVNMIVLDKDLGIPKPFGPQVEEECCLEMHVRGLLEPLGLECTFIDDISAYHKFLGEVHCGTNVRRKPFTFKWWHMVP
# Sequence of UniProt Q9UKI8 (whole entry, looked up): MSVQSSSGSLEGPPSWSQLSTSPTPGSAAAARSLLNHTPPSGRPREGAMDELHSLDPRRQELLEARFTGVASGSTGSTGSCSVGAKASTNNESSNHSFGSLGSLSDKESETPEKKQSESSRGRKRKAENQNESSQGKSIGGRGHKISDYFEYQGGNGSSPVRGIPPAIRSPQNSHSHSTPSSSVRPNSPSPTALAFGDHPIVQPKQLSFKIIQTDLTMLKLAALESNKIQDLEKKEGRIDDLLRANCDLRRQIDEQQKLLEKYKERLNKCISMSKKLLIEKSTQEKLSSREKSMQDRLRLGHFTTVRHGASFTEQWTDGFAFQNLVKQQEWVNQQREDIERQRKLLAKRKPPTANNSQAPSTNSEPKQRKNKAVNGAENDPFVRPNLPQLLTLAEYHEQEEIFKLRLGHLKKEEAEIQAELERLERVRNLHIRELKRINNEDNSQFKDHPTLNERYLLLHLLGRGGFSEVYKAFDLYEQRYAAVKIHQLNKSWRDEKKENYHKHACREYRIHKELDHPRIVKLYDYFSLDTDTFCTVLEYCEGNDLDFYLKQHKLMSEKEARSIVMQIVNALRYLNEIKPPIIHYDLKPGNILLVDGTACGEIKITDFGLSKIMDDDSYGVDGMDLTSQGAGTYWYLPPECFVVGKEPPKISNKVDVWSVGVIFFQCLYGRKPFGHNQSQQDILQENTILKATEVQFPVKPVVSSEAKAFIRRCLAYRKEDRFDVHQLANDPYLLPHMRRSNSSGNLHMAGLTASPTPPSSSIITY
SMILES,target or system,test,test system,conditions,scale,quantity,result
O=C1NC(=O)c2c1c1cc(F)c[n+]3c1c1c2c2cc(O)ccc2[n]1[Ru-4]312([N]=C=S)[S+]3CC[S+]1CC[S+]2CC3 (stereo not drawn),"Cyclin-dependent kinase 2, with cyclin E (CDK2, Homo sapiens, UniProt P24941)",enzyme activity,,"100 nM, human enzyme, with: 10 µM ATP",relative to: untreated,remaining activity,83%
CS(C)(=O)=Nc1ccc(-c2ccc(-c3nc4cc(O[C@@H]5CO[C@H]6[C@@H]5OC[C@H]6O)[nH]c4cc3F)cc2)cc1,"Cyclin-dependent kinase 1, with cyclin B (CDK1, Homo sapiens, UniProt P06493)","enzyme activity, inhibitor",,10 µM,,inhibition,-3%
CC(C)CC(O)(CC(C)C)c1cn(C(=O)N2CCCC2)nn1,"Isoamyl acetate-hydrolyzing esterase 1 homolog (Iah1, Mus musculus, UniProt Q9DB29)",,"mouse, brain",concentration not given,relative to: vehicle over compound,activity-based probe labelling ratio,1.57
C[C@H](NCc1ccc(-c2ccc(C(F)(F)F)cc2)cc1)C(N)=O,"Tyrosine-protein kinase ABL1, non-phosphorylated (ABL1, Homo sapiens, UniProt P00519)","cell-free assay, competition with immobilised ligand",,1 µM,,inhibition,10%
CN(/N=C/c1ccccc1C(=O)O)c1nc(-c2ccccc2Cl)cs1,LYN B kinase,"kinase activity, inhibitor",,1 µM,,inhibition,1.26% and 0.13%
N[C@H](C(=O)N1CCCC1)C1CCN(c2nccc3c(-c4ncc(Cl)cc4Cl)cccc23)CC1,"Protein-arginine deiminase type-2 (PADI2, Homo sapiens, UniProt Q9Y2J8)","enzyme activity, inhibitor",,"24 µM, with: Ca2+ 0.25 mM",,inhibition,102%
O=C(O)c1ccccc1/C=N/Nc1nc(-c2ccccc2Cl)cs1,"Misshapen-like kinase 1 (MINK1, Homo sapiens, UniProt Q8N4C8)","enzyme activity, inhibitor",,1 µM,,inhibition,12.8%
O=C1NC2(CC2)COc2ncc(F)cc2[C@H]2COCCN2c2ccn3ncc1c3n2,,,"Sprague-Dawley rat, female, blood","oral, 20 mg/kg/day, end of treatment, 4-week repeated-dose toxicity",relative to: red blood cells,reticulocytes,2.78 ± 1.83%
Nc1ccc(/C=C/C(=O)N2CCc3c(oc4c(-c5ccc(F)cc5)cc(-c5ccc(C(=O)N6CCC(F)(F)CC6)cn5)cc34)C2)cn1,"Serine/threonine-protein kinase PAK 1 (PAK1, Homo sapiens, UniProt Q13153)","binding, competition with immobilised ligand",,1 µM,,remaining binding,92%
CN(C)[C@H]1C[C@@]23CC[C@@]4(O2)C(=CC[C@]2(C)[C@@H](c5ccc6ccncc6c5)CC[C@H]24)C=C3[C@@H](O)[C@@H]1O,"Serine/threonine-protein kinase tousled-like 1 (TLK1, Homo sapiens, UniProt Q9UKI8)","ATP probe labelling, inhibitor, KiNativ profiling",,1 µM,,inhibition,-7.8%
COc1ccc(F)cc1S(=O)(=O)Nc1cnc2c(c1)C(=O)NCCO2,"Alpha-2B adrenergic receptor (ADRA2B, Homo sapiens, UniProt P18089)","ligand displacement, radioligand",,10 µM,,inhibition,6%
CC(=O)NC[C@@H]1[C@@H](O)C[C@H]2[C@H](O)C[C@@H](CO)N12,Spodoptera litura β-N-acetylglucosaminidase,,crude enzyme,"0.214 µM, run 2, with: p-nitrophenyl GlcNAc",,inhibition,33.9%
CC(C)[C@H]1NC(=O)C[C@H]2/C=C/CCSSC[C@@H](NC1=O)C(=O)N[C@H](Cc1cccc3ccccc13)C(=O)NCC(=O)O2,"Cyclin-dependent kinase 1, with cyclin B1 (CDK1, Homo sapiens, UniProt P06493)","enzyme activity, inhibitor",,10 µM,,inhibition,-3.7%
COc1ccccc1-c1n[nH]c2nc(NC3CCN(C(=O)Cc4ccc(F)cc4F)CC3)ncc12,,"bead binding, competition bead pull-down, measured: LINJ.30.1440",Leishmania donovani extract,10 µM,relative to: vehicle,relative abundance,1.14
O=C(CN1CN(c2ccccc2)C2(CCN(C(=O)c3cnc4[nH]ncc4c3)CC2)C1=O)NCC(F)(F)F,"Tyrosine-protein kinase ITK/TSK (ITK, Homo sapiens, UniProt Q08881)",inhibitor,,concentration not given,,inhibition,< 50%

# A few entries again:
SMILES,target or system,test,test system,conditions,scale,quantity,result
O=C1NC2(CC2)COc2ncc(F)cc2[C@H]2COCCN2c2ccn3ncc1c3n2,,,"Sprague-Dawley rat, female, blood","oral, 20 mg/kg/day, end of treatment, 4-week repeated-dose toxicity",relative to: red blood cells,reticulocytes,2.78 ± 1.83%
